Published values from different studies.
A part holds a random share of what one study measured.

Study 1
Target: RNA binding protein fox-1 homolog 2, RRM domain, GST-SBP tag (RBFOX2, Homo sapiens, UniProt O43251-10, residues 100-194)
Method: RNA Bind-n-Seq
Form: RNA
Matrix: in vitro
Tested at: 365 nM
Setting: natural RNA segment, single round, ends assumed
Baseline: no-protein control
Direction: higher = stronger binding
All sequences stand within: GGGAGUUCUACAGUCCGACGAUC … UGGAAUUCUCGGGUGCCAA
Construct (chain): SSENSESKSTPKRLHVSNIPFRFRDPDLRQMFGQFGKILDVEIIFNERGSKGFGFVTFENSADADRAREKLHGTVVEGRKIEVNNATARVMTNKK
| Oligonucleotide | RBNS enrichment (R) |
| --- | --- |
| CCAGCAUUCCCGGGUGGGCCCAGACCCCAUCACCAAGACUGGCCACCCGCUGCGUGUGUGUGCGCGCGCGUGUACGUGUGGCCCCACAUCCGCCGCCUUCCACGCUAGGA | 0.54 |
| UCUCACAGAGUACACUAGACAUACAUAGAGACACCUUGUAGUAUUUUGGAAGCAAAAGAUUAUUUUCUCUUAACAAGACUUUUUGUACUGAAAACAAUUUUUUUGAAUCU | 0.54 |
| AGGACUCUGCUGGGUUGAAAUUUGCCGGGGAGGACUCUUGUCUCCCCCUCAGGAGUAUUUUUGUUGAGGCUUUCCUGGAGGUGAAGAAGCAAUUCCCAUUGCAGCAGGUU | 0.777 |
| GACUGGUCUUCAGGAGUCAGUAGACCACCGGACCAGGUGUCAGCAUCCACUCCAAGCCAUGCUAGGAAUCUGCCCCCUGCCGGGUUCAGCUCUUUAAGGUGCCUCUUCAG | 0.255 |
| CCAGCAGAGAUGCUAGUGGGGCUUCCGCUGUGUCAUCAGACCUCCAGAGCACCUGAUUGGCCCAAAAGACCAGCAAGACCCUUGUCUACUCUGCAGAUGGUGAAGCCUUU | 0.362 |
| AUGAGCAUCUGCAUGUUGACUCUUCAGUUAAGAAAAUUGUUGUUCAUUUAGGGAGGUGGAUAUUCUGAUGAAGAUCUUUAUCCUAAACCUUCCUACUAUCCUUGUCUUAU | 10.2 |
| GCAUCCCAAACAUUGCCAGGAGGCUUCCCUGGACCCCAGCGAGACCCUGGCCUCUCUUGUCUGCACGCCUCAUGUGGCCACUGGGAUUUGAGGGUCCACAGUGAACCUUG | 3.74 |
| UCUCACGUUCUCUAUAAUAGAAACAGCAGGUCUUGUCAGCUCCUUGUGUGGCUGAUGUGUCUGGAAAUGAUGUAGUUCAGGAAAGCAUUUUUUUUUUCUUUGAACCUUAA | 0.735 |
| GCUCCACCUGUUCAGGAGCUGAAGCCCAUGCUUUCCCACCAGCAUGUCACUCCCAGACCACCUCCCUGCCCUGUCCUCCAGCUUCCCCUCGCUGUCCUGCUGUGUGAAUU | 1.01 |
| AUCCACUGAGCACUGUAAUACAUUUGACAGGAUGGCUGCAUGAAACUGUCCAGCAUUUUUCUGUCGUUUCCCCCCCACCCCAAAUCCUUUUUUUCUCUUCUUUUUUAAAA | 1.36 |
| GCAGACCGAGUUAGUGUUUGAUGCGACUAUCUCCAUCCUUAGUAUGGAUGUGGUCAGUUCUGCACAAUUUGGUUUCAAACUAACUUUUUUUUCUUUCCUUUUUAAAAAUA | 0.657 |
| UAAAUUUAAAGAUCACCUCUCUGCAUUUGUUUUUAAAUUAUGCUAAUACACCACACAUUAUGUUGGUAUGUUUUGUUCUGUACUUUCUUUAAAAAAAAAAAAAAAACUUG | 1.98 |

Study 2
Target: Centromere-binding protein 1, full length, His-tagged (CBF1, Saccharomyces cerevisiae, UniProt P17106, residues 1-351)
Chain of UniProt P17106 (whole entry, looked up): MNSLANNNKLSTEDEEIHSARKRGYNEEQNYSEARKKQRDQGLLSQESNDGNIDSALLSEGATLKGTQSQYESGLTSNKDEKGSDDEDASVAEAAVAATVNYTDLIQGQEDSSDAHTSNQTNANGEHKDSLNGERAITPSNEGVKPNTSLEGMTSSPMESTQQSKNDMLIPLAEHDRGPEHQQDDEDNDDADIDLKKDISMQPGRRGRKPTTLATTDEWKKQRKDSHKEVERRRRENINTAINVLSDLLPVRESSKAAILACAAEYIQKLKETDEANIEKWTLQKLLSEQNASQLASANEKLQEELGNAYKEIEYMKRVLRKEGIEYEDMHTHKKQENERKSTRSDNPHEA
Method: competition protein-binding microarray
Form: double-stranded DNA, one strand shown
Matrix: in vitro
Tested at: 2 µM
Setting: whole 60-bp probe, lowest competitor level
Together with: Pho4 competitor, 0.05 µM
Direction: higher = stronger binding
All sequences stand within: … GTCTTGATTCGCTTGACGCTGCTG
| Oligonucleotide | fluorescence intensity |
| --- | --- |
| AAAGCGGTAATTTGAATTGTGGGTGCAGATATCTAT | 79 a.u. |
| CCATTACCCGCAAAGCACGTGAGGAAAAAATCAATT | 2470 a.u. |
| CAACAACTGCTGATTCTCGTGATGGGAGAAATTAGC | 232 a.u. |
| GCCAGTCGCCAATGCCACCTGATTCTCTGGTCGATT | 77.3 a.u. |
| GAAGCGTATAAAACACACGTGGATTGGGGGTGCTTT | 794 a.u. |
| AAAGCGGTAATTTTTCACGTGAACTCACATATCTAT | 1060 a.u. |
| GTTTCGTAAGTAGTGCGCGTGCAAATTTCGCCCGTT | 107 a.u. |
| CGGGGTTAAGTTTGGGGTGTGGGTGGCTTGCAGCAG | 64.4 a.u. |
| CTAACGAAGGTTTTTCACGTGGGCTACAAGCCAAGT | 838 a.u. |
| CTTCTGTAAATTTGTCCAGTGGGTGGACGCGCCCCG | 79 a.u. |
| TGCAGTCTAAAAACACACGTGTAGGTTTTTTTCCGC | 1160 a.u. |
| TCGGTCCTTAAAAGTCAGCTGACTGGGGCCGTCGCT | 1310 a.u. |
| CCCAATGGTGGCTCACACTTTTAAACTTTCTAAATT | 85.5 a.u. |
| ACCGTCGAGCCTCACATCGTGGTCGGGAGAGACTCT | 54.6 a.u. |
| GTCTTGTCTCATTGTCACTAAACTTTCCCCACTTCA | 82.4 a.u. |
| TCCTTATCTGGCGTACCCGTGCAAACGTTTCCGGGC | 98.4 a.u. |
| ACATTGACGTATTTTCACGTGATGGGCCTCACTGCG | 2070 a.u. |

Study 3
Target: Interferon regulatory factor 5, full length, phosphomimetic (IRF5, Homo sapiens, UniProt Q13568-2, residues 1-514, K96S/S451D/S453D/S456D/S462D)
Method: protein-binding microarray
Form: double-stranded DNA, one strand shown
Matrix: in vitro
Tested at: 250 nM
Setting: 60-bp whole probe
Together with: salmon DNA 0.4 mg/ml
Baseline: random background probes
Direction: higher = stronger binding
All sequences stand within: GCCTAGCAC … GTCTTGATTCGCTTGACGCTGCTG
| Oligonucleotide | log fluorescence [z-score] |
| --- | --- |
| GACGGTTTCCATCTCCTGACGTGCTAG | 0.86 |
| GACGATCTCAGTTTCAAGACGTGCTAG | 0.852 |
| TTAGGTTTCGATCTCGGTTAGTGCTAG | 9.23 |
| TTAGGTCTGGACACTGGGTTAGTGCTA | -0.472 |
| GACTTTTTAGATATCTTTTTGTGCTAG | 0.88 |
| TACGGTTTCCTTCTCCTGACGTGCTAG | 0.922 |
| GTGTTATTAAAACTTCATGAAGTGCTA | 0.299 |
| GACCATCTCATATAAATAGGCGTGCTA | 0.106 |
| TTAGGTGTCGGTCTCGGTTAGTGCTAG | 0.386 |
| GACGATTTCGGTATCGGGACGTGCTAG | 7.17 |
| TTTGCTTTCTTTATGTACTCGTGCTAG | 2.81 |
| TAAGGTATAAACTTGGGAAAGTGCTAG | 0.0216 |
| TTCACTTTCCAAAGCGTGAGGTGCTAG | 0.638 |
| TCATCTTTCCCTGCCCCACTGTGCTAG | 0.565 |
| TCATTTATCAATCATTTTACTGTGCTA | 1.69 |
| TTAGATATCAGCCTCGATTAGTGCTAG | 0.458 |
| TTAGATCTCAGTTCCGATTAGTGCTAG | 0.999 |
| ACAGCAAGCAGGGCCAGCCCGTGCTAG | -0.785 |
| TTAGATATCAGTATCGATTCGTGCTAG | 7.05 |
| TCATTTTTCTAAACCATACTGTGCTAG | 1.02 |
| CAACTTTTTTTAATTGAGAAGTGCTAG | 0.461 |
| TCAGAGCTCTGTCTGGGACTGTGCTAG | -0.388 |
| GACGATTCCAGTTTCAAGACGTGCTAG | 1.3 |
| TGACGGCTCACTCCGTTGGAGTGCTAG | -0.646 |
| AGACCTTCACCTCTCTGTCCGTGCTAG | 0.11 |

Study 4
Target: Histone acetyltransferase KAT6A, both winged helices, GST fusion (KAT6A, Homo sapiens, UniProt Q92794, residues 1-181)
Method: protein binding microarray
Form: double-stranded DNA, one strand shown
Matrix: in vitro
Tested at: not given
Setting: 8-mer, flanks averaged, mean of 2 arrays, mostly near background
Baseline: not given
Direction: higher = stronger binding
Target sequence (chain): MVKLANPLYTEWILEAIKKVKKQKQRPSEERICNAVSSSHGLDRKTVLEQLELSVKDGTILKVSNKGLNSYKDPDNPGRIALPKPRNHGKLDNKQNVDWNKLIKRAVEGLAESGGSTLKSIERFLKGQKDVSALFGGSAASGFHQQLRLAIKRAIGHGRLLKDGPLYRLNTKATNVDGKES
| Oligonucleotide | E-score |
| --- | --- |
| ACCCCCTG | -0.0842 |
| ACCCTTTA | -0.0628 |
| ACCGACTG | 0.0569 |
| CGCATTAC | 0.185 |
| CGGGAGAG | 0.0979 |
| CCTCATCC | -0.122 |
| GTGCGTTA | 0.177 |
| GGCGGACA | 0.172 |
| AGACGCTA | 0.164 |
| AGGCCACT | -0.0702 |
| ACGGTCCG | 0.275 |
| CACATATC | -0.128 |
| GCCCTGAC | -0.0831 |
| CGTTCGCC | 0.111 |
| TGCCCTAA | -0.146 |
| ACTCGGTG | -0.0563 |
| ACAGCCGG | 0.23 |
| GCGGGGTA | 0.24 |
| GGTGTGGA | -0.142 |

Excerpt of the above (study 1):
| Oligonucleotide | RBNS enrichment (R) |
| --- | --- |
| UCUCACAGAGUACACUAGACAUACAUAGAGACACCUUGUAGUAUUUUGGAAGCAAAAGAUUAUUUUCUCUUAACAAGACUUUUUGUACUGAAAACAAUUUUUUUGAAUCU | 0.54 |
| AGGACUCUGCUGGGUUGAAAUUUGCCGGGGAGGACUCUUGUCUCCCCCUCAGGAGUAUUUUUGUUGAGGCUUUCCUGGAGGUGAAGAAGCAAUUCCCAUUGCAGCAGGUU | 0.777 |
| GACUGGUCUUCAGGAGUCAGUAGACCACCGGACCAGGUGUCAGCAUCCACUCCAAGCCAUGCUAGGAAUCUGCCCCCUGCCGGGUUCAGCUCUUUAAGGUGCCUCUUCAG | 0.255 |
| CCAGCAGAGAUGCUAGUGGGGCUUCCGCUGUGUCAUCAGACCUCCAGAGCACCUGAUUGGCCCAAAAGACCAGCAAGACCCUUGUCUACUCUGCAGAUGGUGAAGCCUUU | 0.362 |
| AUGAGCAUCUGCAUGUUGACUCUUCAGUUAAGAAAAUUGUUGUUCAUUUAGGGAGGUGGAUAUUCUGAUGAAGAUCUUUAUCCUAAACCUUCCUACUAUCCUUGUCUUAU | 10.2 |
| GCAUCCCAAACAUUGCCAGGAGGCUUCCCUGGACCCCAGCGAGACCCUGGCCUCUCUUGUCUGCACGCCUCAUGUGGCCACUGGGAUUUGAGGGUCCACAGUGAACCUUG | 3.74 |
| UCUCACGUUCUCUAUAAUAGAAACAGCAGGUCUUGUCAGCUCCUUGUGUGGCUGAUGUGUCUGGAAAUGAUGUAGUUCAGGAAAGCAUUUUUUUUUUCUUUGAACCUUAA | 0.735 |
| GCUCCACCUGUUCAGGAGCUGAAGCCCAUGCUUUCCCACCAGCAUGUCACUCCCAGACCACCUCCCUGCCCUGUCCUCCAGCUUCCCCUCGCUGUCCUGCUGUGUGAAUU | 1.01 |
| AUCCACUGAGCACUGUAAUACAUUUGACAGGAUGGCUGCAUGAAACUGUCCAGCAUUUUUCUGUCGUUUCCCCCCCACCCCAAAUCCUUUUUUUCUCUUCUUUUUUAAAA | 1.36 |
| GCAGACCGAGUUAGUGUUUGAUGCGACUAUCUCCAUCCUUAGUAUGGAUGUGGUCAGUUCUGCACAAUUUGGUUUCAAACUAACUUUUUUUUCUUUCCUUUUUAAAAAUA | 0.657 |
